Experimental data collected from several papers.
Each numbered part is a random draw from the data of one study; scales do not carry over between parts.

Sample 1
Target: Replicase polyprotein 1ab, main protease (rep, Severe acute respiratory syndrome coronavirus 2, UniProt P0DTD1)
Effect on: enzyme activity
Action: inhibitor
Concentration: 20 µM
Notes: primary screen
SMILES	inhibition
Clc1ccc(C(OCCN2CCCCC2)c2ccccc2)cc1 (stereo not shown)	113%
O=C(O)C(=O)CBr	78.9%
NCC1(CC(=O)O)CCCCC1	76.6%

Sample 2
Target: Replicase polyprotein 1ab, nsp13 helicase (rep, Severe acute respiratory syndrome coronavirus 2, UniProt P0DTD1)
Action: inhibitor
Concentration: 20 µM
SMILES	inhibition [%]
N=C(N)NCCC[C@@H](NC(=O)[C@@H]1CCCN1C(=O)[C@@H]1CSSCCC(=O)N[C@@H](Cc2ccc(O)cc2)C(=O)N[C@@H](Cc2ccccc2)C(=O)N[C@@H](CCC(N)=O)C(=O)N[C@@H](CC(N)=O)C(=O)N1)C(=O)NCC(N)=O	5.23
COC(=O)C1=C(C)NC(C)=C(C(=O)OC(C)C)C1c1cccc2nonc12 (stereo not shown)	5.15
O=C1CCCCCCCCCCCCCCO1	-0.87
C[C@]12C=CC(=O)C=C1CC[C@@H]1[C@@H]2[C@@H](O)C[C@@]2(C)[C@H]1CC[C@]2(O)C(=O)COC(=O)CCC(=O)O	3.82
CCOc1ccc2nc(SCCN3CCOCC3)[nH]c2c1	5.4
C[C@@H]1CCC[C@H](C)N1NC(=O)c1ccc(Cl)c(S(N)(=O)=O)c1	2.14
COc1ccc(S(=O)(=O)N2CCCN(S(=O)(=O)c3ccc(OC)c(OC)c3)CC2)cc1OC	2.05
O=C(NC(=O)c1c(F)cccc1F)Nc1cc(Cl)c(OC(F)(F)C(F)C(F)(F)F)cc1Cl (stereo not shown)	2.77
O=C(c1ccc(OCCCc2c[nH]cn2)cc1)C1CC1	5.1
CCNC(=O)c1[nH]nc(-c2cc(Cl)c(O)cc2O)c1-c1ccc(OC)cc1	4.3
O=C(O)CCn1c2c(c3ccccc31)C[C@H](NS(=O)(=O)c1ccc(F)cc1)CC2	0.51
Nc1ncnc2c1c(-c1ccc(Cl)cc1)nn2-c1cccc(-c2cnnn2Cc2cccc(-c3ccccc3)c2)c1	8.37
CC(C)(C)C(=O)OCOC(=O)[C@@H]1N2C(=O)[C@@H](NC(=O)[C@H](N)c3ccccc3)[C@H]2SC1(C)C	-0.19
COc1ccccc1N1CCN(CCCNc2cc(=O)n(C)c(=O)n2C)CC1	2.17
O=C(c1ccc(Cl)o1)N1C[C@H]2CNC[C@H]2C1	4.04
c1ccc2sc(N3CCN(Cc4ccc5c(c4)OCO5)CC3)nc2c1	0.37
Cl/C=C/C[N+]12CN3CN(CN(C3)C1)C2	-1.65
CCOC(=O)c1cc(C#N)c(N2CCC(C(=O)NS(=O)(=O)Cc3ccccc3)CC2)nc1C	7.75
O=C(NO)c1ccc(O)c(O)c1	-1.47
Cc1cncc(CN2CCC(=C3c4ccc(Cl)cc4CCc4cccnc43)CC2)c1	6.98
Cc1cccc(C)c1NC(=O)CN1CCCC1=O	-3.26
O=C(O)c1cc(O)c(O)c(O)c1	5.84
C#C[C@]1(O)CC[C@H]2[C@@H]3CCC4=CC(=NO)CC[C@@H]4[C@H]3CC[C@@]21CC (mixture of isomers)	1.13
Cc1nc(-c2cccnc2)sc1C(=O)Nc1ccccc1-c1cn2c(CN3CCOCC3)csc2n1	2.6
CC1=C(C(=O)OC(C)C)C(c2cccc([N+](=O)[O-])c2)C(C(=O)OC2CN(C(c3ccccc3)c3ccccc3)C2)=C(N)N1 (stereo not shown)	4.08

Sample 3
Target: Interferon regulatory factor 7, full length, phosphomimetic (IRF7, Homo sapiens, UniProt Q92985, residues 1-503, S101K/S471D/S472D/S475D/S476D/S477D/S483D/S484D/S487D)
Technique: protein-binding microarray
Molecule type: double-stranded DNA, one strand shown
Matrix: in vitro
Concentration: 250 nM
Notes: 60-bp whole probe
Added: salmon DNA 0.4 mg/ml
Reference: random background probes
Direction: higher = stronger binding
All sequences stand within: GCCTAGCAC … GTCTTGATTCGCTTGACGCTGCTG
Target sequence (chain): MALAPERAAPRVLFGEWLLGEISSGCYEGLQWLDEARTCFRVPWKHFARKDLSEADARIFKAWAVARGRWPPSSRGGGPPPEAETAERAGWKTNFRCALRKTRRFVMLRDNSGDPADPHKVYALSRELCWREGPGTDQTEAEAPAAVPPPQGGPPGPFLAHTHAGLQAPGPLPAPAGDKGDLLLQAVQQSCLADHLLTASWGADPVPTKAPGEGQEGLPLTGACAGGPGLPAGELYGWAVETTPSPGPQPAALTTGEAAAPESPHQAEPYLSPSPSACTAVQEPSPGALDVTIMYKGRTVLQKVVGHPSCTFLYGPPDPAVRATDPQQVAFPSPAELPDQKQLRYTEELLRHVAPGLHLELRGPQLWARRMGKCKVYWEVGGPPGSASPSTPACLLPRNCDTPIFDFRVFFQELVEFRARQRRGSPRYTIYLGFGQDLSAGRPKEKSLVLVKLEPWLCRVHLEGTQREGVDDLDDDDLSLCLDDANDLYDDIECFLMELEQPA
Strand	log fluorescence [z-score]
GACGATTTGAGTTCCGAGACGTGCTAG	0.269
TTAGGTTTCGAATTTCGGTTAGTGCTA	9.61
TTAGGTTTCGTTTCCGGTTAGTGCTAG	13.2
GACGGTTTCCTTTCCCGGACGTGCTAG	4.99
TTAGGACTGGGTCCCGGTTAGTGCTAG	0.622
TTAGGACTGCTACTGCTTTCGTGCTAG	-0.507
GATGGTCTCCTTATCCTGACGTGCTAG	0.175
GACGATCTCCTACTGCTGACGTGCTAG	-0.146

Sample 4
Target: Sal-like protein 4, full length isoform B (SALL4, Homo sapiens, UniProt Q9UJQ4-2, residues 1-616)
Technique: universal PBM
Molecule type: double-stranded DNA, one strand shown
Matrix: in vitro
Concentration: not given
Notes: 8-mer, flanks averaged, mean of replicates
Direction: higher = stronger binding
Construct (chain): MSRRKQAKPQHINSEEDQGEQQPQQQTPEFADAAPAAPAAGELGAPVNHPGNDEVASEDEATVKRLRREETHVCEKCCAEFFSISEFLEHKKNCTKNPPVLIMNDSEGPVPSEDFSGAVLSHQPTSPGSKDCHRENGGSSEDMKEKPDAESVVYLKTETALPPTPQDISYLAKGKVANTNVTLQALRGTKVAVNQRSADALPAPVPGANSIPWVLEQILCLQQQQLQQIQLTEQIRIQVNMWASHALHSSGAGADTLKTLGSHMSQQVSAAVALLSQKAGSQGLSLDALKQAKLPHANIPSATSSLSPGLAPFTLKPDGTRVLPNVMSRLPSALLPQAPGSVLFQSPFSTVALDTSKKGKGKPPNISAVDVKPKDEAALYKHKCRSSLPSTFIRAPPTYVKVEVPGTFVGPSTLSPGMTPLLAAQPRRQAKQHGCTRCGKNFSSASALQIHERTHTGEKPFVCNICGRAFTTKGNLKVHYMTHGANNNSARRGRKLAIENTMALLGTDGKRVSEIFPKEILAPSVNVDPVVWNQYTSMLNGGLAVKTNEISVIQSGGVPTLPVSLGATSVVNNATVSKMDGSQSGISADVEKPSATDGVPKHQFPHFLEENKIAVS
Strand	E-score
GCGCTCTA	-0.131
TATAGCAA	0.26
GGGCGAAA	0.0887
TCAGTGCA	-0.0547
ACAAGTGC	-0.0259
CTAAACTC	-0.013
CGAGCAGC	-0.155
CTCCCAAC	-0.214

Sample 5
Target: Histone acetyltransferase KAT6A, winged helix 2, GST fusion (KAT6A, Homo sapiens, UniProt Q92794, residues 85-181)
Technique: protein binding microarray
Molecule type: double-stranded DNA, one strand shown
Matrix: in vitro
Concentration: not given
Notes: 8-mer, flanks averaged, mean of 2 arrays, mostly near background
Reference: not given
Direction: higher = stronger binding
Residues (chain): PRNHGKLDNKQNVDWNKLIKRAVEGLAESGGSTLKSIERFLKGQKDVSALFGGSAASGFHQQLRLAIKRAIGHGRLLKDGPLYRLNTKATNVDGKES
Strand	E-score
ATTTTAGG	-0.0316
CAGTGTAC	-0.0753
AACCTACA	0.0717
CTCCCTAC	-0.036
ACTCACCG	0.0275
ATTGTGTC	-0.102
GCAGGTAC	0.0303
GTTTACAA	0.083

A few entries again (sample 2):
SMILES	inhibition [%]
O=C(NO)c1ccc(O)c(O)c1	-1.47
Cc1cncc(CN2CCC(=C3c4ccc(Cl)cc4CCc4cccnc43)CC2)c1	6.98
Cc1cccc(C)c1NC(=O)CN1CCCC1=O	-3.26
O=C(O)c1cc(O)c(O)c(O)c1	5.84
C#C[C@]1(O)CC[C@H]2[C@@H]3CCC4=CC(=NO)CC[C@@H]4[C@H]3CC[C@@]21CC (mixture of isomers)	1.13
Cc1nc(-c2cccnc2)sc1C(=O)Nc1ccccc1-c1cn2c(CN3CCOCC3)csc2n1	2.6
